# Results of several laboratories.
# A part holds a random share of what one study measured. Substitutions count along the parent as printed.

# Block 1
# Target: Myc proto-oncogene protein, bHLH-zipper, MAX partner unstated (MYC, Homo sapiens, UniProt P01106, residues 368-449)
# Chain of UniProt P01106 (368-449, looked up): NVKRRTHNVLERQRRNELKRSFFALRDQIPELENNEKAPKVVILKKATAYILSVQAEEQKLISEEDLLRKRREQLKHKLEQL
# Method: protein-binding microarray
# Molecule type: double-stranded DNA, one strand shown
# Matrix: in vitro
# Tested at: not given
# Notes: k-mer, scored over probes, only values ≥0.25
# Direction: higher = stronger binding
Oligonucleotide,E-score
ACACACGT,0.397
CCCGCACG,0.299
CGCCACGA,0.356
ATAACCAC,0.338
GTGCAGAA,0.271
GGGGACCA,0.26
AGGGGCGG,0.299
CATGCTTA,0.396
ATGTGCGC,0.374
CAAACCAC,0.255

# Block 2
# Target: CCNA1, cyclin fold, Cln2 fusion (human)
# Method: yeast growth competition, sequencing
# Matrix: yeast
# Notes: weak parent motif
# Reference: not given
# Direction: higher = stronger binding
# Starting sequence: SLBP docking peptide (human); ARYKRKLLINDFG
Variant,normalised enrichment score
ARYKRKLLINDGG [F12G],0.385
LRYKRKLLINDFG [A1L],0.282
ACYKRKLLINDFG [R2C],-0.00711
FRYKRKLLINDFG [A1F],0.304
ARYKRKLLINDFT [G13T],0.219
ARYRRKLLINDFG [K4R],0.134
ARYKRKLLISDFG [N10S],0.474
APYKRKLLINDFG [R2P],0.67

# Block 3
# Target: PABPC1L2, full length, GST fusion (mouse, UniProt A0ABA7IW68)
# Method: RNAcompete
# Molecule type: RNA
# Matrix: in vitro
# Tested at: 20 nM
# Notes: 7-mer, probes averaged, single round
# Reference: mean of 7-mers
# Direction: higher = stronger binding
# Construct (chain): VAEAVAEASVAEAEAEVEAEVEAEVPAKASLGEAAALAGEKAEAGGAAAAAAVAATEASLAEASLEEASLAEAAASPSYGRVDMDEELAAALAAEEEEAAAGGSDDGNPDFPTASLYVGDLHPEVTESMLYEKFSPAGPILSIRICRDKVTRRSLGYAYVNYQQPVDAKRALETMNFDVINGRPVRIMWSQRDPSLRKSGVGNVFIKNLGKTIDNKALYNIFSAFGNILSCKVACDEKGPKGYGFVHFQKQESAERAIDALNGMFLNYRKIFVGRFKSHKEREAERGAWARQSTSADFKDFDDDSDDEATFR
Oligonucleotide,7-mer Z-score
AUAUCUG,-0.164
AGAUCCU,-0.316
UGUCGAU,-0.287
AACAGCC,0.456
CCAUCGU,-0.373
UGAAAAC,1.84
CUUUCAG,-0.376
CGAUCAU,-0.0899
GAUUCCA,-0.0301

# Other studies, line by line
Molecule,target,test,system,conditions,how to read,endpoint,value
"PhoQ, residues 284 288 289 292 302 303 AQGLTV","PhoP, residues 12 14 15 18 19 LHHVQ (Escherichia coli, UniProt P23836)","Sort-seq, refers to: YFP reporter",E. coli,"PhoQ-PhoP variant library, together with: 10 µM Mg2+","reference: high Mg2+ state, higher = stronger signaling",fold induction,21.4
